Results of several laboratories.
± gives the spread as reported.
Nuclear receptor subfamily 2 group C member 2 ligand-binding domain: Nuclear receptor subfamily 2 group C member 2, ligand-binding domain (Homo sapiens, UniProt P49116)
UniProt P49116, sequence (whole entry, looked up): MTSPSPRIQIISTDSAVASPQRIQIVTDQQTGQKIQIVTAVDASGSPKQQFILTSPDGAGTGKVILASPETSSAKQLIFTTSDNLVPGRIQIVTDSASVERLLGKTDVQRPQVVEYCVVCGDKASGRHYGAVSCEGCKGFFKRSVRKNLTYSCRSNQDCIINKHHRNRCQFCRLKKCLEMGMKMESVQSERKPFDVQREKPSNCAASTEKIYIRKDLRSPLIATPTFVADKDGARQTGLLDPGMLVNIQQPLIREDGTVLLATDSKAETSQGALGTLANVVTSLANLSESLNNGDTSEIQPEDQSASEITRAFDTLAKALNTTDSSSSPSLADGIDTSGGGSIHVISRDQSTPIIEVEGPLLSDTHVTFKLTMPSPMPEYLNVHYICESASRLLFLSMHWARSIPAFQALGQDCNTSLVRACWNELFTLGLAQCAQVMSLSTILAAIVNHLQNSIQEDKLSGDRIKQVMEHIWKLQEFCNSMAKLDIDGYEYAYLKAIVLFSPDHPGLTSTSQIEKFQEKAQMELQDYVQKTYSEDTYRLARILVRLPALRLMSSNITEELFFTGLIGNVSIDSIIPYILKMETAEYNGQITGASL
UniProt P04746, sequence (whole entry, looked up): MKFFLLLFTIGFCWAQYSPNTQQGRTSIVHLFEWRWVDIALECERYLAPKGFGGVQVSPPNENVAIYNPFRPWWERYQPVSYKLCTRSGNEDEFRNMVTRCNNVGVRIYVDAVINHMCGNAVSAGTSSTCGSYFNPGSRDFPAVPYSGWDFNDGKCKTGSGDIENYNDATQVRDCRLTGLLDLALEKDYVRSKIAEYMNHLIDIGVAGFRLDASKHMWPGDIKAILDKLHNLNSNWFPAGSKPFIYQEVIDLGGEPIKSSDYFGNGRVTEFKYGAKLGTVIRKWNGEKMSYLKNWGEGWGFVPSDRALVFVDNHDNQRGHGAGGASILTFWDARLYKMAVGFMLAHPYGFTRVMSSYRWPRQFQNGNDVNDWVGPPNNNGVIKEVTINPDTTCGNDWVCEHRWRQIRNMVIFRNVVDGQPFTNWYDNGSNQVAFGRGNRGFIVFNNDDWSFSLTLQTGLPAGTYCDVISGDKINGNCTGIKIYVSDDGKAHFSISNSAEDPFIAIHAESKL
UniProt P05164, sequence (whole entry, looked up): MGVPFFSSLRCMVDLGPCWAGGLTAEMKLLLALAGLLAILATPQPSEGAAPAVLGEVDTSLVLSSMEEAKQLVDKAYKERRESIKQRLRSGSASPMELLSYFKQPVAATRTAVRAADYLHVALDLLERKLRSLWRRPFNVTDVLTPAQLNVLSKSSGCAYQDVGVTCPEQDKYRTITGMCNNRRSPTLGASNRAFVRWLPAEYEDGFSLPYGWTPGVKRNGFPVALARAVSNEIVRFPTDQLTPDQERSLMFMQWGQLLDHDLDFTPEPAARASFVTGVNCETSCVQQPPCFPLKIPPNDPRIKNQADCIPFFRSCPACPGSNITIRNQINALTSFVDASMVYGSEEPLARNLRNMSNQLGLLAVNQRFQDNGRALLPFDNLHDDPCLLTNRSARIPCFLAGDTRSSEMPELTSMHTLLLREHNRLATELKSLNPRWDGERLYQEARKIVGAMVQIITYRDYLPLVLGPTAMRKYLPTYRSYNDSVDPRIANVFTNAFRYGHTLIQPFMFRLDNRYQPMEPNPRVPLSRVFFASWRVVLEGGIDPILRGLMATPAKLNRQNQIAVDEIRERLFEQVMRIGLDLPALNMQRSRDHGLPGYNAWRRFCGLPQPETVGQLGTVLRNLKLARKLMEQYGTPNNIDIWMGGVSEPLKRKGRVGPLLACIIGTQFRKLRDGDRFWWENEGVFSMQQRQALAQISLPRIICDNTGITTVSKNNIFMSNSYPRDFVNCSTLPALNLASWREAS
UniProt Q16774, sequence (whole entry, unmodified, looked up): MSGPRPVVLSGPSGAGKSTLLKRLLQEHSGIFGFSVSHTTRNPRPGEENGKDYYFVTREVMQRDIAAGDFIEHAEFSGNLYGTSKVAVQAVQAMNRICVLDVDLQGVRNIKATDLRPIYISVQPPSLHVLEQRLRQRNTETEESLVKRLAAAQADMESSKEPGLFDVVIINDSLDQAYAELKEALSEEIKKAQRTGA
UniProt P46100, sequence (whole entry, unmodified, looked up): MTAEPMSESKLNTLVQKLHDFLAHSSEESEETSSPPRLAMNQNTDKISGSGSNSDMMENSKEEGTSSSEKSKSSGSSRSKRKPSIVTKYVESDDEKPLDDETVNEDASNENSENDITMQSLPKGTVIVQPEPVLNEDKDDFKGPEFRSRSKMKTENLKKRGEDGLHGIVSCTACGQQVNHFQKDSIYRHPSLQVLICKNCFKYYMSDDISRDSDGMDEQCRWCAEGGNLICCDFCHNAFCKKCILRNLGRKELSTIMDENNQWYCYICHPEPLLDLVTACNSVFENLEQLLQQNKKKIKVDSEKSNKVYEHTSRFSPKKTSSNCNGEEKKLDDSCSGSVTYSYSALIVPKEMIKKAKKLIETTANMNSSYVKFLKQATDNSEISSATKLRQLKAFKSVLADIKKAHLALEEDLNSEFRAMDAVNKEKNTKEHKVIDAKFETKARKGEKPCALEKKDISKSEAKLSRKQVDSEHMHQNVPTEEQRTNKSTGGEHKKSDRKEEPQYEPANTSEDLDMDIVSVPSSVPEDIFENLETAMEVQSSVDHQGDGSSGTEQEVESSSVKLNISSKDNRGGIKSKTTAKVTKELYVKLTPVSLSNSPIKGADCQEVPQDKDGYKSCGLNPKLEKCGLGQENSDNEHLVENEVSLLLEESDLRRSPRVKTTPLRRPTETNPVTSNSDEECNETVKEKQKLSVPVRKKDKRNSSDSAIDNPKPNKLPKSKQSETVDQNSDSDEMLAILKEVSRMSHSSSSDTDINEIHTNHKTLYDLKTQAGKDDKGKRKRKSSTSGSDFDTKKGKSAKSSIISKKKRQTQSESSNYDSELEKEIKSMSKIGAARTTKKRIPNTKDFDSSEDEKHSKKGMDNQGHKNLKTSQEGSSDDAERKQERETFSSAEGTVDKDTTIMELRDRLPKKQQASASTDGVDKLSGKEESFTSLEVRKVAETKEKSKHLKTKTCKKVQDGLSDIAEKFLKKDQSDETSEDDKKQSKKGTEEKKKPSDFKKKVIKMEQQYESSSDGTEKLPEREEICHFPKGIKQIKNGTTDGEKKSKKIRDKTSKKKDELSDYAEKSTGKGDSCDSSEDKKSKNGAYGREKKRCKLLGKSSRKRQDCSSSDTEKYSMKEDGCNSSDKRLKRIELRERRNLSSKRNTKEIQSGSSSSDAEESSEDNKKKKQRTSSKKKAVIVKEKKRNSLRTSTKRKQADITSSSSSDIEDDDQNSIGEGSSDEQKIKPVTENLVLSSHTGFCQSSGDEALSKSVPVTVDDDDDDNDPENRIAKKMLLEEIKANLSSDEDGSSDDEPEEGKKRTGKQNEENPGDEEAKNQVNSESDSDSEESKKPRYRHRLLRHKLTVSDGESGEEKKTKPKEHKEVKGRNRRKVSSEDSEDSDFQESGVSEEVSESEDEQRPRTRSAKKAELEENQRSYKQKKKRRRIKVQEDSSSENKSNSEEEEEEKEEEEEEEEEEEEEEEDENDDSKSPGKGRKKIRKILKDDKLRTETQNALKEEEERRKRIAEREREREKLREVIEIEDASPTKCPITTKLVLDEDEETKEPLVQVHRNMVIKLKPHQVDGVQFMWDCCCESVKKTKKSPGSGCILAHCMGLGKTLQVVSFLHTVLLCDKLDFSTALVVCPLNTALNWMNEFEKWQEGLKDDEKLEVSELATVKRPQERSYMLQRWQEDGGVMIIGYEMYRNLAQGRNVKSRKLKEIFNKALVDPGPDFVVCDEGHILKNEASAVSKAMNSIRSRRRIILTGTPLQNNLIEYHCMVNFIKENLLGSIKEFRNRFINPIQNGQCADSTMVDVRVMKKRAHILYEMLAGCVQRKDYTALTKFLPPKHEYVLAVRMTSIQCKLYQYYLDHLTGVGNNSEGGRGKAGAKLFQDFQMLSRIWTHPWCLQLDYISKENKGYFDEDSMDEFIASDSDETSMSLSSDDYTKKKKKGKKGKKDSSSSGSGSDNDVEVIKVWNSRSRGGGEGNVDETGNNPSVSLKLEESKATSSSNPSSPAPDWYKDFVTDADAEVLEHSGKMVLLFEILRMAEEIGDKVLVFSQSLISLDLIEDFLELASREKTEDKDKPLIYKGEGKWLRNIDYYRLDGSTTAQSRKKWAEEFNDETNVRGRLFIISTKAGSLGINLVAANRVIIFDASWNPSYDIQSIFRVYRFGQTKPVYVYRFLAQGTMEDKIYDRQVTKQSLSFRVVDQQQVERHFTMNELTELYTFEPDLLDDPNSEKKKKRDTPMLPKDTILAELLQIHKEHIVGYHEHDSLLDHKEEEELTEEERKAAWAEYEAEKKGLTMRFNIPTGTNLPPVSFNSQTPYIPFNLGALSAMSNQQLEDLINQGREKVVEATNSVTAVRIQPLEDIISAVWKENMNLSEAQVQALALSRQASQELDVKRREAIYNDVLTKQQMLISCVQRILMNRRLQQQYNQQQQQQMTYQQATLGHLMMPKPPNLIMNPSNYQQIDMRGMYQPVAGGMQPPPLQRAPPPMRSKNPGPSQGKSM
UniProt P61981, sequence (whole entry, looked up): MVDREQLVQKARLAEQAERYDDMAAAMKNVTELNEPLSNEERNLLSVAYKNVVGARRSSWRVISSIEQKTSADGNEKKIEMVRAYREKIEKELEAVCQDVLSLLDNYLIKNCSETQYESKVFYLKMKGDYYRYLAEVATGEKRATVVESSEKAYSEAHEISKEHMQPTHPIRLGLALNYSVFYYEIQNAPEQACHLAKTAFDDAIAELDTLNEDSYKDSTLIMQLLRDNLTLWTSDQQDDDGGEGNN
UniProt P02763, sequence (whole entry, looked up): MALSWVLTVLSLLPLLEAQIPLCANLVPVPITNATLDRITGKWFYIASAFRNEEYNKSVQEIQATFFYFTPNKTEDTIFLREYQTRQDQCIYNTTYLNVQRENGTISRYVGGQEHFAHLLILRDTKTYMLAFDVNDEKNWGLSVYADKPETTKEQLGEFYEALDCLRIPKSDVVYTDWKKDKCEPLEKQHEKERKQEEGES

Compound	tested on	test	system	conditions	scale	endpoint	result
CCS(=O)(=O)N1CC(CC#N)(n2cc(-c3ncnc4[nH]ccc34)cn2)C1	ORM1 (Homo sapiens, UniProt P02763)	fluorescence quenching	–	308 K	–	Gibbs free energy	-6.2 kcal/mol
CN1CCCN(c2cc(C=O)ccc2[N+](=O)[O-])CC1	YWHAG/RELA, phospho-Ser45 p65 peptide (Homo sapiens, UniProt P61981+Q04206)	ternary complex formation, stabilizer, fluorescence anisotropy	–	–	–	EC50	> 1000 µM
Nc1ncnc2c1ncn2[C@@H]1O[C@H](C[C@@H](N)CC[C@H](N)C(=O)O)[C@@H](O)[C@H]1O	O-methyltransferase (Sorghum bicolor, UniProt A0A1B6PFV1)	isothermal titration calorimetry	–	concentration not given, apo protein	–	binding stoichiometry	0.95 ± 0.012 sites
C[C@H](N)C(=O)N[C@@H](CCCNC(=N)N)C(=O)N[C@H](C(=O)N[C@@H](CCCCN)C(=O)N[C@@H](CCC(N)=O)C(=O)N[C@H](C(=O)N[C@@H](C)C(=O)N[C@@H](CCCNC(=N)N)C(=O)N[C@@H](C)C(=O)N[C@@H](CO)C(=O)O)[C@@H](C)O)[C@@H](C)O	Transcriptional regulator ATRX (ATRX, Homo sapiens, UniProt P46100, F284Y/K251R)	isothermal titration calorimetry	–	concentration not given, pH 7.5, 25.0 °C	–	binding enthalpy	-3.2 kcal/mol
CO[C@H]1O[C@H](COS(=O)(=O)O)[C@@H](O[C@@H]2O[C@@H](C(=O)O)[C@@H](O[C@H]3O[C@H](COS(=O)(=O)O)[C@@H](O[C@@H]4O[C@H](C(=O)O)[C@@H](O[C@H]5O[C@H](COS(=O)(=O)O)[C@@H](O)[C@H](O)[C@H]5NS(=O)(=O)O)[C@H](O)[C@H]4O)[C@H](OS(=O)(=O)O)[C@H]3NS(=O)(=O)O)[C@H](O)[C@H]2OS(=O)(=O)O)[C@H](O)[C@H]1NS(=O)(=O)O	Beta-2-glycoprotein 1, domain V (APOH, Homo sapiens, UniProt P02749, V266L)	isothermal titration calorimetry	–	298 K, with: 50 mM NaCl	–	entropic contribution TΔS	-3.01 kcal/mol
O=C(O)C[C@H](O)C[C@H](O)/C=C/c1c(C2CC2)nc2ccccc2c1-c1ccc(F)cc1	COS-7	–	–	3 µM, 24 h, 0.1% DMSO, unit not given	relative to: vehicle control	apoptotic cells	0.9 ± 0.23
NC/C(=C\F)COc1cccc(Cn2c(=S)[nH]c(=O)c3[nH]cnc32)c1	Myeloperoxidase (MPO, Homo sapiens, UniProt P05164)	H2O2 consumption, inhibitor, H2O2 electrode	–	0.028 µM, 0.2 s	–	H2O2 concentration	-0.173 µM
O=C(O)c1ccc(Nc2ncc3c(n2)-c2ccc(Cl)cc2C(c2c(F)cccc2F)=NC3)cc1	Fes(h)	kinase activity	–	1 µM	–	remaining activity	133%
COc1cc2c(c(O)c1OC)C(=O)c1c(cc(C)c(O[C@@H]3O[C@H](CO)[C@@H](O)[C@H](O)[C@H]3O)c1OC)C2=O	HepaRG co-cultured with HK-2	MTT	–	16.67 µM, 24 h	relative to: untreated control	cell viability	101 ± 10.7%
Cn1c([N+](=O)[O-])cnc1COC(N)=O	Nuclear receptor subfamily 2 group C member 2 ligand-binding domain	SPR imaging	–	600 nM	–	koff	1.57e-06 s⁻¹
COc1cccc(-c2ccc(NC(=O)C3=C(C(=O)O)CCC3)c(F)c2)c1	COS-7	WST-8	–	3 µM, 24 h, 0.1% DMSO, unit not given	relative to: vehicle control	metabolic activity	0.93 ± 0.06
COc1cc(-c2cc(C(C)=O)n3ccccc23)c(OC)cc1Cn1ccnc1	Bromodomain testis-specific protein, BD2 (BRDT, Homo sapiens, UniProt Q58F21)	–	–	–	–	ΔTm	2.9 °C
CC(C)[C@H](C(=O)Nc1ccc(C(=O)NO)cc1)c1ccccc1	OCI-Ly1	–	–	0.1 µM, 120 h	–	viability	71.1%
CCCC[C@H]1CN(c2cccc(C)c2C)C(=O)CN1Cc1cncn1Cc1ccc(C#N)cc1	Cryptococcus neoformans farnesyltransferase	enzyme activity, inhibitor, fluorescence	–	with: 1 µM FPP, 0.5 µM dansylated peptide	–	IC50	2.2 ± 1.3 µM
COCCCOc1cc(C[C@@H](C[C@H](N)[C@@H](O)C[C@H](C(=O)NCC(C)(C)C(N)=O)C(C)C)C(C)C)ccc1OC	Nuclear receptor subfamily 2 group C member 2 ligand-binding domain	SPR imaging	–	600 nM	–	koff	5.84e-06 s⁻¹
C[C@@H](c1ccc(-n2cnc3c(N)ncnc32)cc1)N1CCc2nn(C)c(Cc3ccccc3)c2C1=O	EGFR (Homo sapiens, UniProt P00533, G719S)	KINOMEscan	–	0.1 µM	relative to: DMSO control	remaining binding	85%
Nc1nc2c(ncn2[C@@H]2O[C@H](COP(=O)(O)OP(=O)(O)O)[C@@H](O)[C@H]2O)c(=O)[nH]1	GUK1 (Homo sapiens, UniProt Q16774, S13A)	binding, ITC	–	–	–	-TΔS	1.32 kcal/mol
Oc1ccc([C@@H]2c3c(O)cc(O)cc3[C@@H]3c4c(cc(O)c5c4[C@@H]2[C@H](c2ccc(O)cc2)[C@H]5c2cc(O)cc4c2[C@@H](c2cc(O)cc(O)c2)[C@H](c2ccc(O)cc2)O4)O[C@H]3c2ccc(O)cc2)cc1	Pancreatic alpha-amylase (Homo sapiens, UniProt P04746)	enzyme activity	–	20 µM	–	Vmax	2450 ± 1580 µmol/min
COc1cc(NC(=O)c2ccccn2)ccc1/N=N/c1ccccc1Cl	GRM7 (Homo sapiens, UniProt Q14831)	positive allosteric modulator, IP accumulation	HEK293	30 µM, in the dark, with: low-dose orthosteric agonist	–	activation	13.9%
NC(=O)c1cccc(N)c1	OCI-Ly1	–	–	1 µM, 120 h	–	viability	77%
CC(Oc1ccccc1)C(=O)NCc1ccccn1 (stereo not drawn)	DCAF1 (Homo sapiens, UniProt Q9Y4B6)	binding, affinity selection mass spectrometry	–	–	relative to: other proteins in batch	log fold enrichment	-0.148

Excerpt of the above:
Compound	tested on	test	system	conditions	scale	endpoint	result
C[C@@H](c1ccc(-n2cnc3c(N)ncnc32)cc1)N1CCc2nn(C)c(Cc3ccccc3)c2C1=O	EGFR (Homo sapiens, UniProt P00533, G719S)	KINOMEscan	–	0.1 µM	relative to: DMSO control	remaining binding	85%
CO[C@H]1O[C@H](COS(=O)(=O)O)[C@@H](O[C@@H]2O[C@@H](C(=O)O)[C@@H](O[C@H]3O[C@H](COS(=O)(=O)O)[C@@H](O[C@@H]4O[C@H](C(=O)O)[C@@H](O[C@H]5O[C@H](COS(=O)(=O)O)[C@@H](O)[C@H](O)[C@H]5NS(=O)(=O)O)[C@H](O)[C@H]4O)[C@H](OS(=O)(=O)O)[C@H]3NS(=O)(=O)O)[C@H](O)[C@H]2OS(=O)(=O)O)[C@H](O)[C@H]1NS(=O)(=O)O	Beta-2-glycoprotein 1, domain V (APOH, Homo sapiens, UniProt P02749, V266L)	isothermal titration calorimetry	–	298 K, with: 50 mM NaCl	–	entropic contribution TΔS	-3.01 kcal/mol
